Measured values pooled from the literature.
Protocols differ between the studies behind these lines. “And” joins repeats or separate records; there may be more than shown. Numbers after ± are the reported error.
Nuclear receptor subfamily 2 group C member 2 ligand-binding domain: Nuclear receptor subfamily 2 group C member 2, ligand-binding domain (Homo sapiens, UniProt P49116)
UniProt P27361, sequence (whole entry, looked up): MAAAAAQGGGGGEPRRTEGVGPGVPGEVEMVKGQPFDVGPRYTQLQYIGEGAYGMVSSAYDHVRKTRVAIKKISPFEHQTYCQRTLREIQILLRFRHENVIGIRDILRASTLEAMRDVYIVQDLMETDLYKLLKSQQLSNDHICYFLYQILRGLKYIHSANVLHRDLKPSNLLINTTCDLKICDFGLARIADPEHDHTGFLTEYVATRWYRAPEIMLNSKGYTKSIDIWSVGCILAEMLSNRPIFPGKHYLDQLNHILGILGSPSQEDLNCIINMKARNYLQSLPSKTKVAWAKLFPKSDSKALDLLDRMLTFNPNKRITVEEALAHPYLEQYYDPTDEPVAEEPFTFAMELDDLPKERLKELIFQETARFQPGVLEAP
UniProt P49116, sequence (whole entry, looked up): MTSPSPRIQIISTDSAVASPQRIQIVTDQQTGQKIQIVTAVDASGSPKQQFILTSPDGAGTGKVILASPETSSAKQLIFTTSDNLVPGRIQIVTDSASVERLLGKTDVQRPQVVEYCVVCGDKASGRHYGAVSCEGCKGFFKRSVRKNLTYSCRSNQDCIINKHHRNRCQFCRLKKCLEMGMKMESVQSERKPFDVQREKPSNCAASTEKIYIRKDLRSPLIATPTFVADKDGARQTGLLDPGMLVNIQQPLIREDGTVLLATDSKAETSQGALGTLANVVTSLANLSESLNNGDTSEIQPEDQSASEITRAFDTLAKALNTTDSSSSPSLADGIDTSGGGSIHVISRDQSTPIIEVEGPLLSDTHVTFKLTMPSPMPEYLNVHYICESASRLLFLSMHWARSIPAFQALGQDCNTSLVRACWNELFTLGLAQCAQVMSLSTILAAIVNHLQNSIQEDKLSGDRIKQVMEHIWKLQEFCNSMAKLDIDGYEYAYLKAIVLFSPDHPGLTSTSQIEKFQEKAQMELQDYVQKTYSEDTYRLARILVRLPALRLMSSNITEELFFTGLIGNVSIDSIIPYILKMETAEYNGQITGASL
UniProt P11388, sequence (whole entry, looked up): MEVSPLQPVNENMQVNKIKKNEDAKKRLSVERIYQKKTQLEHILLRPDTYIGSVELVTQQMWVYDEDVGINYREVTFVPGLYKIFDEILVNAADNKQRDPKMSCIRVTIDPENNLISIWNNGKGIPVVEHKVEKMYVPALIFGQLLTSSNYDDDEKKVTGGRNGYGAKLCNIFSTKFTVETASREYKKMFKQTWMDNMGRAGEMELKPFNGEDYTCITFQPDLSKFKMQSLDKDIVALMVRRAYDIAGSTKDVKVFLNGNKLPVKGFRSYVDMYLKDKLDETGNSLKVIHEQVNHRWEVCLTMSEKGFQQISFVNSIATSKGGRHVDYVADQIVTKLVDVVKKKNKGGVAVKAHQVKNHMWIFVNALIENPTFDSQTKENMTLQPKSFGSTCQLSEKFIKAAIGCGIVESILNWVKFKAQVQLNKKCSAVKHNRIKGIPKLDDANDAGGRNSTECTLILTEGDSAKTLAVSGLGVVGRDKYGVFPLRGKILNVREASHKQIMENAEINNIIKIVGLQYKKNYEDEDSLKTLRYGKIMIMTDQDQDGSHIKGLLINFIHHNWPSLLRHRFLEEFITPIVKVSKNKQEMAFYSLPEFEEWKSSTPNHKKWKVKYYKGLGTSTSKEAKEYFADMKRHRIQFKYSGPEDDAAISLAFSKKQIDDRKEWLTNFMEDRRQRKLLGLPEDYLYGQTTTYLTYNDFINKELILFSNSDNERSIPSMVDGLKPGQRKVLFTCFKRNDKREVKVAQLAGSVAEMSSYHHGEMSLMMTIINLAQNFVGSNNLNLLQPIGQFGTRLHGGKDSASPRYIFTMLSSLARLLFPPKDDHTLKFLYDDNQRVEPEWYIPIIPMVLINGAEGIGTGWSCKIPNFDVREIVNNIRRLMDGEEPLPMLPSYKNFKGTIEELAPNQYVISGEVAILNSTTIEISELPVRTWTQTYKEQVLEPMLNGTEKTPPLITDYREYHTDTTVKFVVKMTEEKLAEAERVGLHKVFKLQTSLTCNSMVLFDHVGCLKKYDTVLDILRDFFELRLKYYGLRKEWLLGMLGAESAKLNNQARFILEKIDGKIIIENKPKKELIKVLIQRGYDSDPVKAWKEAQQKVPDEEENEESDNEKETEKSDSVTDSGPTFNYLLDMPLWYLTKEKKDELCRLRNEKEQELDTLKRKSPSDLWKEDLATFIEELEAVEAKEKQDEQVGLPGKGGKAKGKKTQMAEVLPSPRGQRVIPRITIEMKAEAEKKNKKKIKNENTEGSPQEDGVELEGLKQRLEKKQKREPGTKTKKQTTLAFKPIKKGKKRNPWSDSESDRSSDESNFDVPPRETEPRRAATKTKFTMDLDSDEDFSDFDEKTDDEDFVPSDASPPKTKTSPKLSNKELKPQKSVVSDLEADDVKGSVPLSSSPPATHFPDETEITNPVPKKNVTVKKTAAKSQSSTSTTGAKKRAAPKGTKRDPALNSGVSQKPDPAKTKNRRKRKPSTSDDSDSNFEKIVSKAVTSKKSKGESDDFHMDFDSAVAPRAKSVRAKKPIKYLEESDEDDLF
UniProt P46100, sequence (whole entry, unmodified, looked up): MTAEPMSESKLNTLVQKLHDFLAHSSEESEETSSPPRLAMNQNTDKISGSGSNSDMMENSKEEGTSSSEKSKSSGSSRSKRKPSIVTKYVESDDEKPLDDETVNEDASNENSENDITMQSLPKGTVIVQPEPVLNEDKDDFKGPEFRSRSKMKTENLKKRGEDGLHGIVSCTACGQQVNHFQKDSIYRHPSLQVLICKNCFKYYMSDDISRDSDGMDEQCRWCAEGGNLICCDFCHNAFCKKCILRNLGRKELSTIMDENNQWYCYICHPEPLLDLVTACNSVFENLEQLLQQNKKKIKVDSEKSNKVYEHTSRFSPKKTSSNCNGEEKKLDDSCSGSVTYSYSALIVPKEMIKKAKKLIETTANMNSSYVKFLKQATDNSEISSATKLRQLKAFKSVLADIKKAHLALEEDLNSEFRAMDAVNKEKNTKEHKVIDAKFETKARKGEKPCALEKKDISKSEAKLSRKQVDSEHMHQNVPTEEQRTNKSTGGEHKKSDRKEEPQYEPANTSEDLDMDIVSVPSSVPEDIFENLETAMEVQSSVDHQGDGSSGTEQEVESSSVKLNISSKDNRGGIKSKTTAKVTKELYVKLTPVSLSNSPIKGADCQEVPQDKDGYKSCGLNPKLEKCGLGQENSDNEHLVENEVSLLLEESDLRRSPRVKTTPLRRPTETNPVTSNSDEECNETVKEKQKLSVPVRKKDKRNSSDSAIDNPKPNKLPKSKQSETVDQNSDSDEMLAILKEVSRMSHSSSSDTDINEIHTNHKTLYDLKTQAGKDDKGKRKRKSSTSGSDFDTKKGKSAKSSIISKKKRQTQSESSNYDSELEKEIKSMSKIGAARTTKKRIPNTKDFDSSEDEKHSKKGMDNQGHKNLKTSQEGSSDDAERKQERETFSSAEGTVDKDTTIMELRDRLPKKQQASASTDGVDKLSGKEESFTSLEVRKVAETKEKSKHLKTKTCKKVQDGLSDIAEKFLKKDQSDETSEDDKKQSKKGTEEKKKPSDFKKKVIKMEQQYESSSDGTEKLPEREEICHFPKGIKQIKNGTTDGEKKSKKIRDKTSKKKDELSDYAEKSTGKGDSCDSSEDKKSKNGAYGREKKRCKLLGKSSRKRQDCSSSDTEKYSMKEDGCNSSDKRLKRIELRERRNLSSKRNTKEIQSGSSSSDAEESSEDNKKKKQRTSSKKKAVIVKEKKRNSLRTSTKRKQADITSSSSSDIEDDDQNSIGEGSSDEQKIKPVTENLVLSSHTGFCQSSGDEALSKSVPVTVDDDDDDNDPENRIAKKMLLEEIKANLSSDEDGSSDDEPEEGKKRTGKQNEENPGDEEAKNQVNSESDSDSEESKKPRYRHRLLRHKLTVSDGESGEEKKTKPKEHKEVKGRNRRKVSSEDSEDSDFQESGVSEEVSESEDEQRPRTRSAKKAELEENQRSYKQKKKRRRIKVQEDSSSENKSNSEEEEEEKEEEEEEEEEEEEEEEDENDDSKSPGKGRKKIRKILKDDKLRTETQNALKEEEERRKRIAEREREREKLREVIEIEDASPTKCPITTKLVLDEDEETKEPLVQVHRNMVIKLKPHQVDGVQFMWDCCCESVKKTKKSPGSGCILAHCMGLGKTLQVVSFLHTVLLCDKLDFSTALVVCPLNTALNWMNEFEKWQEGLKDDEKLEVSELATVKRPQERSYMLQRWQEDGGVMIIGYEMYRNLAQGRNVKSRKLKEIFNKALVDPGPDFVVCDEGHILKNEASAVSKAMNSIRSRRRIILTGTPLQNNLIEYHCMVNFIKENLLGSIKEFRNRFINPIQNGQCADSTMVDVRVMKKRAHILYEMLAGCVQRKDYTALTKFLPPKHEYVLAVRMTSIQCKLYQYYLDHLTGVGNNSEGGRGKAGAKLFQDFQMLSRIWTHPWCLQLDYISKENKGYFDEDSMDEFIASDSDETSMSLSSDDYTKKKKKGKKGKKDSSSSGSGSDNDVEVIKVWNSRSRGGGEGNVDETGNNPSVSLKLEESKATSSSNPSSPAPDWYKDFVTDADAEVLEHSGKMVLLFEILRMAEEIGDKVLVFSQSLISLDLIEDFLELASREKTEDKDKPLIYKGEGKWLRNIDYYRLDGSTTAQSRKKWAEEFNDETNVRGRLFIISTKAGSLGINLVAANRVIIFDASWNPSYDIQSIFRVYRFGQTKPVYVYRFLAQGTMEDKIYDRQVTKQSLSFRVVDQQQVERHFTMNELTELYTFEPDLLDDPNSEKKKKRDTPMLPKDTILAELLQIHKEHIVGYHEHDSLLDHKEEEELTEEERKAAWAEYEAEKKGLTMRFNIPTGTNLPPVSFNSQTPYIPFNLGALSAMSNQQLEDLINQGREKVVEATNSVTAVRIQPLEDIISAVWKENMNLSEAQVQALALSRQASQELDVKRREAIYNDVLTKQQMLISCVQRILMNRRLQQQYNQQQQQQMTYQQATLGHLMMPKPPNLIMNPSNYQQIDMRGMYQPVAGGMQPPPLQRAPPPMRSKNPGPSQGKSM

| SMILES | target | assay | system | setting | how to read | endpoint | value |
| --- | --- | --- | --- | --- | --- | --- | --- |
| Oc1ccc(/C=C/c2cc(O)cc(O)c2)cc1 | O-methyltransferase (Sorghum bicolor, UniProt A0A1B6PFV1) | isothermal titration calorimetry | – | concentration not given, apo protein | – | ΔH of binding | -11.7 ± 0.378 kcal/mol |
| N#Cc1ccc(Cn2cncc2CN2CCN(c3cccc(OC(F)(F)F)c3)C(=O)C2)cc1 | Cryptococcus neoformans farnesyltransferase | enzyme activity, inhibitor, fluorescence | – | together with: 1 µM FPP, 0.5 µM dansylated peptide | – | IC50 | 2700 ± 1100 nM |
| OC[C@H]1OC(O)[C@H](O)[C@@H](O)[C@@H]1O (stereo partly shown) | Nuclear receptor subfamily 2 group C member 2 ligand-binding domain | SPR imaging | – | 600 nM | – | koff | 1.93e-07 s⁻¹ |
| N[C@@H](Cc1ccccc1)C(=O)O | PAL1 (Petroselinum crispum, UniProt P24481, Y110F) | binding, ITC | – | – | – | -TΔS | 31.2 kcal/mol |
| C=CC[C@@H]1/C=C(\C)C[C@H](C)C[C@H](OC)[C@H]2O[C@@](O)(C(=O)C(=O)N3CCCC[C@H]3C(=O)O[C@H](/C(C)=C/[C@@H]3CC[C@@H](O)[C@H](OC)C3)[C@H](C)[C@@H](O)CC1=O)[C@H](C)C[C@@H]2OC | Nuclear receptor subfamily 2 group C member 2 ligand-binding domain | SPR imaging | – | 600 nM | – | koff | 1.08e-06 s⁻¹ |
| Nc1ncnc2c1ncn2[C@@H]1O[C@H](COP(=O)(O)OP(=O)(O)OP(=O)(O)O)[C@@H](O)[C@H]1O | GUK1 (Homo sapiens, UniProt Q16774) | substrate, NADH-coupled | – | – | – | kcat | 45.5 s⁻¹ |
| Nc1[nH]nc2nnc(-c3c(-c4ccccc4)nn4ccccc34)cc12 | MAPK3 (Homo sapiens, UniProt P27361) | ADP-Glo | – | 251 nM, together with: MBP substrate | – | kinase activity | 70.2% and 43.1% and 95.3% |
| O=c1nc(SCc2cc(F)cc(C(F)(F)F)c2)nc(SCc2ccc3sccc3c2)[nH]1 | TOP2A (Homo sapiens, UniProt P11388) | decatenation | – | 15.6 µM | – | mean decatenated DNA | 0.37% |
| CCCC[C@H]1C(=O)N(C)[C@@H](CCCC)C(=O)N[C@@H](CCCCNC(=O)CN2CCN(CC(=O)O)CCN(CC(=O)O)CC2)C(=O)N[C@H](C(=O)NCC(N)=O)CSCC(=O)N[C@@H](Cc2ccc(O)cc2)C(=O)N(C)[C@@H](C)C(=O)N[C@@H](CC(N)=O)C(=O)N2CCC[C@H]2C(=O)N[C@@H](Cc2c[nH]cn2)C(=O)N[C@@H](CCC(=O)O)C(=O)N2C[C@H](O)C[C@H]2C(=O)N[C@@H](Cc2c[nH]c3ccccc23)C(=O)N[C@@H](CO)C(=O)N[C@@H](Cc2cn(CC(=O)O)c3ccccc23)C(=O)N1C [gallium-68 labelled] | CD274 (Homo sapiens, UniProt Q9NZQ7) | PET/CT | human, bone metastasis | – | – | SUVmax | 11.8 |
| C=C1CN(S(=O)(=O)c2ccc(C)cc2)CCCN(Cc2ccccc2)CCCN(S(=O)(=O)c2ccc(C)cc2)C1 | Protein transport protein Sec61 subunit alpha isoform 1 (Homo sapiens, UniProt P61619) | Sec61-dependent translocation, inhibitor, refers to: CD4 signal peptide-FLuc reporter | HEK293 | 0.0043 mM, 6 h | – | FLuc/RLuc ratio | 0.958 |
| [O-][S+]1CCCCS1 (stereo not shown) | SOD1 (Homo sapiens, UniProt P00441, G94A) | two-compartment model | SOD1 G93A transgenic mice, whole blood | iv, 10 mg/kg | – | alpha rate constant | 0.0625 h⁻¹ |
| CNCCCC[C@H](NC(=O)[C@@H](NC(=O)[C@H](CCCNC(=N)N)NC(=O)[C@H](C)N)[C@@H](C)O)C(=O)N[C@@H](CCC(N)=O)C(=O)N[C@H](C(=O)N[C@@H](C)C(=O)N[C@@H](CCCNC(=N)N)C(=O)N[C@@H](CCCCN)C(=O)N[C@@H](CO)C(=O)N[C@H](C(=O)NCC(=O)NCC(=O)N[C@@H](CCCCN)C(=O)N[C@@H](C)C(=O)N[C@@H](Cc1ccc(O)cc1)C(=O)O)[C@@H](C)O)[C@@H](C)O | Transcriptional regulator ATRX (ATRX, Homo sapiens, UniProt P46100, F284Y/K251R) | isothermal titration calorimetry | – | concentration not given, pH 7.5, 25.0 °C | – | binding enthalpy | -5.89 kcal/mol |
| CCNC(=O)/C=C/c1cccc(Br)c1 | SLC6A19 (Homo sapiens, UniProt Q695T7) | inhibitor, L-[14C]leucine uptake | CHO-BC cells | 0.03 µM, 6 min, unit not given, together with: GPNA 3 mM, JPH203 3 µM | baseline: uninhibited cells | remaining transport activity | 0.972 |
| c1coc(-c2n[nH]cc2-c2ccnc3ccccc23)c1 | Serine/threonine-protein kinase CBK1 (CBK1, Candida albicans, UniProt Q5AP53) | kinase binding, MIB/MS competition | Candida albicans lysate | 10 µM | baseline: DMSO, negative = stronger binding | log2 fold change | -0.16 |
| Cc1ccc(N2CC(C(N)=O)CC2=O)cc1 (stereo not shown) | YTH domain-containing protein 1 (Homo sapiens, UniProt Q96MU7) | binding, affinity selection mass spectrometry | – | – | baseline: other proteins in batch | fold enrichment | 1 |
| Cc1cc(-c2ccnc3[nH]cc(F)c23)cc(F)c1[C@@]1(O)[C@H](C)CN(C2CCS(=O)(=O)CC2)C[C@@H]1C | AKT2 and AKT3 | ATP probe binding, KiNativ, refers to: ATP loop | HEK293T cell lysate | 0.1 µM | – | inhibition | 15.3% |

Excerpt of the above:
| SMILES | target | assay | system | setting | how to read | endpoint | value |
| --- | --- | --- | --- | --- | --- | --- | --- |
| OC[C@H]1OC(O)[C@H](O)[C@@H](O)[C@@H]1O (stereo partly shown) | Nuclear receptor subfamily 2 group C member 2 ligand-binding domain | SPR imaging | – | 600 nM | – | koff | 1.93e-07 s⁻¹ |
| N[C@@H](Cc1ccccc1)C(=O)O | PAL1 (Petroselinum crispum, UniProt P24481, Y110F) | binding, ITC | – | – | – | -TΔS | 31.2 kcal/mol |
